Results gathered from unrelated publications.
Numbered parts are unrelated; each lists some results of a single study. Positions count from the first letter of the parent shown.

Set 1 — target: CCNE1, cyclin fold, Cln2 fusion (human); technique: yeast growth competition, sequencing; sample: yeast; notes: strong parent motif; reference: not given; reading: higher = stronger binding
Parent: CDKN1A docking peptide (human); SKACRRLFGPVDS
Substitution	normalised enrichment score
R5T	0.275
L7T	0.511
A3E	1.14
F8S	0.204
V11Y	6.14
R6P	0.408
F8E	-0.381
C4L	0.879
C4P	0.236
K2N	6.15
K2V	3.72
R5P	-0.0228
F8G	0.285
D12W	3.16
A3M	0.955
P10A	5.09
V11M	5.44
C4K	4.98
P10H	4.37
C4D	0.59
K2T	5.73

Set 2 — technique: DHFR PCA, deep sequencing; sample: yeast; with: (+)-ABA 0 µM; reference: wild-type fitted maximum; reading: higher = stronger binding
Target: ABI1, truncated, D143A, DHFR fusion (Arabidopsis thaliana)
Notes: methotrexate growth selection, single substitutions
Parent: PYL1, truncated, DHFR fusion (Arabidopsis thaliana); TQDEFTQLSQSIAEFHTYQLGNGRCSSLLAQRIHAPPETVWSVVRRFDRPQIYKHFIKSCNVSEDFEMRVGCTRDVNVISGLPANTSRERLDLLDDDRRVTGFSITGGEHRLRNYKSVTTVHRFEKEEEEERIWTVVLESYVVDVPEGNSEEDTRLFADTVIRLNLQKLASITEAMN; partner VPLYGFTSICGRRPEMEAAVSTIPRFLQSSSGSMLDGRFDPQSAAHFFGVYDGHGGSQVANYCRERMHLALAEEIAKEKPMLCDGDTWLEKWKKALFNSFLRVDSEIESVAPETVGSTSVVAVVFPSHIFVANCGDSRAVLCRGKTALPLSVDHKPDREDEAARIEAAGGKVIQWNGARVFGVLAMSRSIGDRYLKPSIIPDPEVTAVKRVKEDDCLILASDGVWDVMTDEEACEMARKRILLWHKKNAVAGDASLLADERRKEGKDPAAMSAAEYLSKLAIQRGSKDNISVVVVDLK
Substitution	relative binding score [%]
V40W	-3.15
R46T	0.596
Y141P	-1.29
T106F	2.16
D144S	-3.13
Q10A	42.2
L29I	33.5
E151M	20
D92Y	3.51
V145R	-7.18
P146C	12.2
R24V	7
R111G	5.84
V121T	3.43
G81F	-1.1
R90Q	7.98
V118M	10.4
E109K	-1.49
R45V	-3.13
D3N	18.4
N165A	7.28
N114V	0.588
S87E	-7.92
S104T	33.6
L29Q	6.4

Set 3 — target: UBE2J2 UBC core domain (UniProt Q8N2K1); technique: yeast two-hybrid; sample: yeast; notes: mostly zero background; reference: not given; reading: higher = stronger interaction
B1: IRF2BPL RING domain (UniProt Q9H1B7); chain SPMANSGPLCCTICHERLEDTHFVQCPSVPSHKFCFPCSRESIKAQGATGEVYCPSGEKCPLVGSNVP
B2: ARK2C RING domain (UniProt Q6ZSG1); chain EGEESDTDEKCTICLSMLEDGEDVRRLPCMHLFHQLCVDQWLAMSKKCPICRVDIETQLGAD
B3: CUL9 RING domain (UniProt Q8IWT3); chain AQAVPVRPDHCPVCVSPLGCDDDLPSLCCMHYCCKSCWNEYLTTRIEQNLVLNCTCPIADCPAQPTGAFIR
B4: PHF21A RING domain (UniProt Q96BD5); chain SPTSTDGDIHEDFCSVCRKSGQLLMCDTCSRVYHLDCLDPPLKTIPKGMWICPRCQDQMLKKEEAIPW
B5: ZNF598 RING domain (UniProt Q86UK7); chain AAAPERGGGSCVLCCGDLEATALGRCDHPVCYRCSTKMRVLCEQRYCAVCREELRQVVFGK
B6: TRIM63 RING domain (UniProt Q969Q1); chain PMENLEKQLICPICLEMFTKPVVILPCQHNLCRKCANDIFQAANPYWTSRGSSVSMSGGRFRCPTCRHEVIMDRHGV
B7: RNF25 RING domain (UniProt Q96BH1); chain LTDNNIPHGQCVICLYGFQEKEAFTKTPCYHYFHCHCLARYIQHMEQELKAQGQEQEQERQHATTKQKAVGVQCPVCREPLVYDLASL
B8: RNF170 RING domain (UniProt Q96K19); chain TRQQFYTDMYCPICLHQASFPVETNCGHLFCGACIIAYWRYGSWLGAISCPICRQTVTLLLTVF
B9: TRIM8 RING domain (UniProt Q9BZR9); chain WKNCFEEELICPICLHVFVEPVQLPCKHNFCRGCIGEAWAKDSGLVRCPECNQAYNQKPGLE
Residues (chain): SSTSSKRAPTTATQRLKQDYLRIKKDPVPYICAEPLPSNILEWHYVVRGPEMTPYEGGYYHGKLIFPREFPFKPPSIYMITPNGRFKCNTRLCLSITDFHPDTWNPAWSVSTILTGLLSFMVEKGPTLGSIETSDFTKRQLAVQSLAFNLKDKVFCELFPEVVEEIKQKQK
Molecule	lacZ reporter activity
KTLSRFGIQPCSICLGDAKDPVCLPCDHVHCLRCLRAWFASEQMICPYCLTALPDEFSPA (RNF213 RING domain (UniProt Q63HN8))	0
B1 (IRF2BPL RING domain)	12500
B2 (ARK2C RING domain)	0
B3 (CUL9 RING domain)	0
B4 (PHF21A RING domain)	0
DAIPSLSECQCGICMEILVEPVTLPCNHTLCKPCFQSTVEKASLCCPFCRRRVSSWTRYH (RNF168 RING domain (UniProt Q8IYW5))	0
B5 (ZNF598 RING domain)	0
VTLSLTLPITCHICLGKVRQPVICINNHVFCSICIDLWLKNNSQCPACRVPITPENPCK (OBI1 RING domain (UniProt Q5W0B1))	0
DDENSDNSNECVVCLSDLRDTLILPCRHLCLCTSCADTLRYQANNCPICRLPFRALLQIR (MGRN1 RING domain (UniProt O60291))	0
B6 (TRIM63 RING domain)	3110
B7 (RNF25 RING domain)	0
FPEHFVKSISCQICEHILADPVETNCKHVFCRVCILRCLKVMGSYCPSCRYPCFPTDLES (RAG1 RING domain (UniProt P15918))	0
B8 (RNF170 RING domain)	0
B9 (TRIM8 RING domain)	0

Set 4 — technique: RNA Bind-n-Seq; molecule type: RNA; sample: in vitro; concentration: 365 nM; reference: no-protein control; reading: higher = stronger binding
Target: RNA binding protein fox-1 homolog 2, RRM domain, GST-SBP tag (RBFOX2, Homo sapiens, UniProt O43251-10, residues 100-194)
Notes: natural RNA segment, single round, ends assumed
All sequences stand within: GGGAGUUCUACAGUCCGACGAUC … UGGAAUUCUCGGGUGCCAA
Construct (chain): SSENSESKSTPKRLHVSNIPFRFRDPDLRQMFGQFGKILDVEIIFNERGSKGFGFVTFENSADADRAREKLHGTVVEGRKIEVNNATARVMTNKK
Sequence	RBNS enrichment (R)
UUGAAGACACAGCAGAAAGGGGGCUUAGGGAUGAGGUCCUGGUUUUUCUUGUAUAAAUAGGAGUCAUGGGCGUUAGUUCUGUAGUAAUAACUUCCCAGCACCUGGACAUC	0.879
CGAGCCUAUCUCAGAUGUACAUUAAUAGACCUCACUGCCUUCCGGGUGAAGGUGUGUUGUCCUACAUAGAACGGUCCCUUCAGUUACCAUUCUGAUUGCUCUAUGCUGCU	0.5
GGGGUUUAAACAUUUGACAGCCAACUCUAUUUUUAUACGACUACUAUACAAAGAAACUACAUAUAGUUUUAUGAUUUAAGGUACUUAGAAAUGUUUAUGGUUAACAUUGU	0.513
GUUGGGCAAUUAGUUUGUAAUUUGUUUUAGGCAAUCACUAUAAAUUAUAAUUAUGGACACUGCAUCAGUAUACAUAACAUGAAGGAAUAAAAAGGAUACAGAAUUGUAUA	0.556
UAUUGAACCCACCCACUCAGAUGCUAAGUCAACCCUGACCUCUGCCCCAUCCACACCAUUCUCCAUUCGAGAGACUACCCCUGUUUCAGAGCCAGUCCCCACCUAGUCCC	0.505
GCCAGCAUUUAGUCGUUUGAGAAUUGUAGCCUGUUGUUUUCGCUGUGACUUGGGUCUCAGUGCUAGGGUAUUGAGUCAGGCAGCUGGAGGGUUGUGGCCCGAGGCUGCAG	5.33
UUAAUUUGCACGAAAACAAAAAUUCCAUAUCAAUGUGCCUUGCCCUGGAUAGCGAUUAUUUGUGGAAUUGUUGCACAUGCUCCUCUAUUGAAAGGGGUUUUUCCCUAGUC	6.99
AGAAUAUGUGUCUUCACCUGAAUAUUUAAUCUUUAUAUUUACAAAAAAAUAAGUUCCACAAGAUGGACAAAAAUGGUCCAUGAUAUUUAGCUUAAAUUGUAACCUUUUGU	0.999
UCAAGAGGAAUCUGUUUCUCUGCUGUCAACUUCCCAUCUGGCUCAGCAUAGGGUCACUUUGCCAUUAUGCAAAUGGAGAUAAAAGCAAUUCUGACUGUCCAGGAGCUAAU	0.229
CAAGUGGGUGUGGAUAAUGCCAUGGCCAGCAGGGGGCACUGUUGAGGCGGGUGCCUUUCCACCUUAAGUUGCUUAUAGUAUUUAAGAUGCUAAAUGUUUUAAUCAAGAGA	0.355
AUAUUUUGGGAAUAGGACCCGAGCCUAAACACAAAAUUCAUUGAUGUGUCAGUUACACCUUAUCCACAUAGCCUGAGGGUAAUUUUAUACGAUAUUUUAAAUAGUUGUGU	0.534
GGAGGUAGCAGGCACUGGCAUAGCACGGUAGUGGUUUGGGGAGGUUUCCGCAGGUCUGCUCCCCACCCCUGCCUCGGAAGAAUAAAGAGAAUGUAGUUCCCUACUCAGGC	0.336

Set 5 — technique: protein binding microarray; molecule type: double-stranded DNA, one strand shown; sample: in vitro; concentration: not given; reference: not given; reading: higher = stronger binding
Target: Histone acetyltransferase KAT6A, winged helix 2, GST fusion (KAT6A, Homo sapiens, UniProt Q92794, residues 85-181)
Notes: 8-mer, flanks averaged, mean of 2 arrays, mostly near background
Target sequence (chain): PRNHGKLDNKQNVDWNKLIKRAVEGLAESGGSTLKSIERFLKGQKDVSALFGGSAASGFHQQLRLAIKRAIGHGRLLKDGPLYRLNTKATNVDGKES
Sequence	E-score
AGCCCTCC	-0.00335
CAGCACGA	-0.0125
ATTATCGA	-0.129
ACACCATA	-0.056
CAACTTAC	-0.249
GCTGGCCC	0.000445
ACATTATA	-0.122
CTGGGCGA	0.11
GGGTTGAC	-0.0737
TGCTGCCA	0.046
CGAACCGC	0.262
ATTCCCAC	0.0142
AGGTGGTG	-0.168
AGCACACT	0.021
AGAACTTG	0.0503
ACGCCAGA	0.0902
ACCCCCCC	-0.225
CTATGCGA	-0.0631
CCGCCTGA	0.0834
AGGATGGA	-0.0569
AGCAATCC	0.0105

Set 6 — target: CREB3, bZIP domain (human); technique: DHFR protein complementation; sample: yeast; reference: wild-type JUN-FOS pair; reading: higher = stronger binding
Notes: single substitutions, most at no-binding floor
Parent: JUN, bZIP domain (human); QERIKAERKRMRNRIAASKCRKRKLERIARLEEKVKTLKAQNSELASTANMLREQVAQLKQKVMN; partner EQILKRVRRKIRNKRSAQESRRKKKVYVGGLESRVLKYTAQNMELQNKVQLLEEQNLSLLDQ
Substitution	binding fitness [natural log]
E44P	-1.53
Q58H	-1.56
R53A	-1.47
V56M	-1.47
R53G	-1.49
T37Y	-1.39
L45M	-1.55
K34Y	-1.48
A29S	-1.35
L52V	-1.54
R30C	-1.59
A29M	-1.58
A46E	-1.13
K36F	-1.47
A40C	-1.5
A49R	-1.39
K39W	-1.48
T48Q	-1.44
I28M	-1.51
L52P	-1.52
E32P	-1.45
L31V	-1.53
E44A	-1.38
Q41I	-1.38
V35D	-1.5

Repeated from above (set 1):
Substitution	normalised enrichment score
C4L	0.879
C4P	0.236
K2N	6.15
K2V	3.72
R5P	-0.0228
F8G	0.285
D12W	3.16
A3M	0.955
P10A	5.09
V11M	5.44
C4K	4.98
